Experimental data from different studies.
± gives the spread as reported. ≈ marks a conversion by molar mass, not a printed value.

COc1cc2c(cc1OC)CN(CCCCn1ccc3cc(OCC[18F])ccc31)C2  tracer uptake (male CD-1 mouse, spleen; intravenous, 1 h): 6.13 %ID/g
Cc1ccc(OCC(=O)O)cc1  AUC(0-last) ratio (female Sprague-Dawley rat, plasma; intravenous, 1.0 mg/kg of parent drug; reference: compound over parent drug): 3.38
Nc1ncnc2c1nc(-n1nnc3c1CCC1C(CO)C1CC3)n2C1OC(CO)C(O)C1O (mixture of isomers)  average fluorescence lifetime (frequency-domain fluorometry; methanol): 0.7 ns
NC[C@@H](C(=O)Nc1ccc(-c2cn[nH]c2)cc1)c1ccccc1  cornea score (OECD 405 eye irritation; New Zealand White rabbit, eye; topical, 0.1%, 24 h (day 2), scale 0 to 4; direction not given): 0
CCCC[C@H](NC(=O)CNC(=O)CNC(=O)CN1CCN(CC(=O)O)CCN(CC(=O)O)CCN(CC(=O)O)CC1)C(=O)N[C@H]1CC(=O)NCCCC[C@@H](C(N)=O)NC(=O)[C@H](Cc2c[nH]c3ccccc23)NC(=O)[C@H](CCCNC(=N)N)NC(=O)[C@@H](Cc2ccccc2)NC(=O)[C@H](Cc2c[nH]cn2)NC1=O [indium-111 labelled]  tumour to blood ratio (C57 mouse, female, B16/F1 melanoma; intravenous, 0.037 MBq, 24 h): 338
CC/C=C\C/C=C\C/C=C\C/C=C\C/C=C\CCCCOC(CC)C(=O)O (centres unmarked)  tissue concentration (radioactivity, 14C-labelled; Wistar rat, male, subcutaneous fat; oral, 100 mg/kg, 1 day): 7.1 µg equivalents/g tissue
COc1cccc(CNC[C@@](O)(COCc2ccccc2)[C@@H]2CC[C@@H](C)C[C@H]2OCc2ccccc2)c1  permeability (PAMPA-GI; phosphatidylcholine-cholesterol membrane; 500 µM, 4 h, pH 6.5, 37 °C, 5% DMSO): 24.5 ± 6.5 ×10⁻⁶ cm/s
CCCCCCCCCCCCCCCC(=O)N[C@@H](CCCCN)C(=O)N[C@@H](CCCCN)C(=O)N[C@@H](CO)C(=O)N[C@@H](CCCNC(=N)N)C(=O)N[C@@H](C)C(=O)N[C@@H](CC(C)C)C(=O)N[C@@H](Cc1ccccc1)C(N)=O  chest tube drainage (CABG patients; dose not given, 24 h, all doses combined): 425 mL
COc1cc(NC(C)=O)c2c(c1O)-c1c(OC)c(OC)cc3c1C(C2)N(C)CC3 (centres unmarked)  remaining compound (rat kidney homogenate; 100 µg/mL, 24 h, room temperature, post-preparative storage): 92.3 ± 2.4%
COc1ccc([C@@H]2CC(=O)c3c(O)cc(O[C@@H]4O[C@H](CO[C@@H]5O[C@@H](C)[C@H](O)[C@@H](O)[C@H]5O)[C@@H](O)[C@H](O)[C@H]4O)cc3O2)cc1O  relative error (rat plasma; 0.48 ng/mL, three freeze-thaw cycles; reference: nominal concentration): -7.42%
CCCC[C@@H]1NC(=O)[C@@H](NC(=O)[C@H](CCC(=O)O)NC(=O)CNC(=O)CN2CCN(CC(=O)O)CCN(CC(=O)O)CCN(CC(=O)O)CC2)CCCCNC(=O)C[C@@H](C(N)=O)NC(=O)[C@H](C(C)C)NC(=O)[C@@H]2CCCN2C(=O)[C@H](CCCNC(=N)N)NC(=O)CNC(=O)[C@H](Cc2c[nH]c3ccccc23)NC(=O)[C@H](CCCNC(=N)N)NC(=O)[C@@H](Cc2ccccc2)NC(=O)[C@H](Cc2c[nH]cn2)NC(=O)[C@H](CCC(=O)O)NC1=O [gallium-67 labelled]  lung uptake (normal C57 mice; intravenous, 0.037 MBq, 2 h): 0.15 ± 0.1 %ID/g
O=c1nc(NO)ccn1[C@@H]1O[C@H](CO)[C@@H](O)[C@H]1O  protein level (measured: CYP3A4; rat, arthritis model, liver; oral, 80 mg/kg twice daily, 5 days; reference: untreated arthritic rats): 2.3 fold
CC12CC(c3ccc(S(C)(=O)=O)cc3)C3=C4CCC(=O)C=C4CCC3C1CCC2(O)C(F)(F)C(F)(F)F (centres unmarked)  total recovery of radioactivity (human, urine and feces; oral, 5 mg, 21 days, [14C]-labelled, single dose; reference: dose): 86.6 ± 2.81%
CCCC[C@H](NC(=O)CNC(=O)CNC(=O)CN1CCN(CC(=O)O)CCN(CC(=O)O)CCN(CC(=O)O)CC1)C(=O)N[C@H]1CC(=O)NCCCC[C@@H](C(N)=O)NC(=O)[C@H](Cc2c[nH]c3ccccc23)NC(=O)[C@H](CCCNC(=N)N)NC(=O)[C@@H](Cc2ccccc2)NC(=O)[C@H](Cc2c[nH]cn2)NC1=O [gallium-67 labelled]  tumour to tissue ratio (female C57 mice, B16/F1 melanoma; intravenous, 0.037 MBq, 4 h; reference: tumour over liver): 29.7
C[C@H]1NSc2nc(=O)c3[nH]ccc3n2Cc2ccc(Cl)cc21  exposure ratio (Sprague-Dawley rat, female, plasma; oral, 125 mg/kg/day; reference: rat over human 15 mg): 39
C[C@]12C[C@H](c3ccccc3)C3=C4CCC(=O)C=C4CC[C@H]3[C@@H]1CC[C@@]2(O)C(F)(F)C(F)(F)F  maximal oral bioavailability (human liver microsomes; 100 % absorption assumed): 79%
CCCC[C@H](NC(C)=O)C(=O)N[C@H]1CC(=O)NCCCC[C@@H](C(=O)N[C@@H](C(=O)N2CCC[C@@H]2C(N)=O)C(C)C)NC(=O)[C@H](Cc2c[nH]c3ccccc23)NC(=O)[C@H](CCCN=C(N)N)NC(=O)[C@@H](Cc2ccc3ccccc3c2)NC(=O)[C@@H]2CCCN2C1=O  mean corpuscular haemoglobin concentration (dog; dose not given, day 1, start of treatment): 34 g/dL
Cc1ccc([C@@H]2O[C@H](CO)[C@@H](O)[C@H](O)[C@H]2O)cc1Cc1ccc(-c2ccc(F)cc2)s1  AUC(0-24h) (albino rabbit, plasma; oral or sublingual, dose not given): 11000 ± 987 ng·h/mL
C=Cc1ccc([C@H]2C[C@@]3(C)[C@@H](CC[C@@]3(O)C(F)(F)C(F)(F)F)[C@@H]3CCC4=CC(=O)CCC4=C32)cc1  maximal oral bioavailability (human liver microsomes; 100 % absorption assumed): 31%
O=C(CCc1ccc(CNC(C(=O)OC2CCCC2)C2CCCCC2)cn1)NO (centres unmarked)  CL/F (human; 50 mg, single dose, geometric mean): 264 L/h
CC(C)(F)CC(NC(c1ccc(-c2ccc(S(C)(=O)=O)cc2)cc1)C(F)(F)F)C(=O)NCC#N (centres unmarked)  cysteine adduct formation (LC-MS UV trace; aqueous buffer; concentration not given, 23 h, pH 7.5, 37 °C, added: cysteine 10 mM): 91%
COC(=O)c1ccc(-c2cn(Cc3cc(Cl)ccc3O[11CH3])nn2)cc1  distribution volume (VT) (PET Logan plot; rhesus monkey, basal ganglia; dose not given, t* 40 min): 0.54 mL/cm³
C[C@H]1C[C@@H](Oc2cccc(F)n2)CCN1Cc1cnc(N[11C](C)=O)s1  unchanged radioligand in plasma (rhesus monkey, plasma; dose not given, 90 min, pre-blocking condition): 35%
CC(C)=CCC[C@](C)(O)[C@H]1CC[C@]2(C)[C@@H]1[C@H](O)C[C@@H]1[C@@]3(C)CC[C@H](O)C(C)(C)[C@@H]3CC[C@]12C  solubility (PEG 400; 72 h, 25 °C): 15.2 ± 4.87 µg/mL (≈ 33 µM)
CC1=CC(C)(C)N=C2C=CC(=O)C=C12  tissue residue (LC-MS/MS; piglets, kidney; oral in feed, 50 mg/kg feed ethoxyquin, 42 days): 3 ± 1.5 ng/g
CC(C)(C)[C@H](NC(=O)[C@H](CCONC(=N)N)NC(=O)Cc1ccc(CNC(=N)N)cc1)C(=O)N[C@@H](CCONC(=N)N)C(=O)NCc1ccc(C(=N)N)cc1  depletion (human liver microsomes 0.7 mg/mL; 50 µM, 5 min, pH 7.4): 7.6%
N=C(N)NCCC[C@@H]1NC(=O)[C@H](Cc2c[nH]c3ccccc23)NC(=O)[C@@H](CC2CCCCC2)NC(=O)[C@@H]2CCCN2C(=O)[C@@H](NC(=O)CCc2ccccc2)CCCNC1=O  distribution rate constant (K12) (C57BL/6J mouse, spinal cord; intraperitoneal, 1 mg/kg, single dose, two-compartment model): 2.75 h⁻¹
Cc1ccc(OCC(=O)N(Cc2cccs2)c2ccn[nH]2)cc1  relative peak area (LC-MS extracted ion chromatogram; dog liver microsomes; 10 µM, 60 min; reference: parent at time 0 min): 7.67%
CCCCCC(C)NCC(=O)O (centres unmarked)  logP (shake flask; water; 24 h): -0.17
NC(=O)c1ccc(C(=O)NOCc2ccc(Sc3cccc(Cl)c3)c(C(F)(F)F)c2)cc1  Tmax (male ICR mouse, plasma; intravenous, 10 mg/kg): 4.8 min
O=C(O)[C@H]1O[C@@H](O[C@H](C[C@H]2c3c(F)cccc3-c3cncn32)[C@H]2CC[C@H](O)CC2)[C@H](O)[C@@H](O)[C@@H]1O  total excretion urine plus faeces (human, urine and faeces; oral, 200 mg, [14C]-navoximod dosed; reference: dose): 59.7%
CC(=O)c1cnc(N)nc1N1CC[C@H]1c1nn2ccc(Cl)c2c(=O)n1-c1ccccc1  AUC (rat Wistar female collagen-induced arthritis, plasma; oral, 1 mg/kg twice daily): 6560 ± 600 ng·h/mL

A few entries again:
Cc1ccc(OCC(=O)O)cc1  AUC(0-last) ratio (female Sprague-Dawley rat, plasma; intravenous, 1.0 mg/kg of parent drug; reference: compound over parent drug): 3.38
COc1ccc([C@@H]2CC(=O)c3c(O)cc(O[C@@H]4O[C@H](CO[C@@H]5O[C@@H](C)[C@H](O)[C@@H](O)[C@H]5O)[C@@H](O)[C@H](O)[C@H]4O)cc3O2)cc1O  relative error (rat plasma; 0.48 ng/mL, three freeze-thaw cycles; reference: nominal concentration): -7.42%
N=C(N)NCCC[C@@H]1NC(=O)[C@H](Cc2c[nH]c3ccccc23)NC(=O)[C@@H](CC2CCCCC2)NC(=O)[C@@H]2CCCN2C(=O)[C@@H](NC(=O)CCc2ccccc2)CCCNC1=O  distribution rate constant (K12) (C57BL/6J mouse, spinal cord; intraperitoneal, 1 mg/kg, single dose, two-compartment model): 2.75 h⁻¹
CCCC[C@H](NC(=O)CNC(=O)CNC(=O)CN1CCN(CC(=O)O)CCN(CC(=O)O)CCN(CC(=O)O)CC1)C(=O)N[C@H]1CC(=O)NCCCC[C@@H](C(N)=O)NC(=O)[C@H](Cc2c[nH]c3ccccc23)NC(=O)[C@H](CCCNC(=N)N)NC(=O)[C@@H](Cc2ccccc2)NC(=O)[C@H](Cc2c[nH]cn2)NC1=O [gallium-67 labelled]  tumour to tissue ratio (female C57 mice, B16/F1 melanoma; intravenous, 0.037 MBq, 4 h; reference: tumour over liver): 29.7
O=C(CCc1ccc(CNC(C(=O)OC2CCCC2)C2CCCCC2)cn1)NO (centres unmarked)  CL/F (human; 50 mg, single dose, geometric mean): 264 L/h
